Assay results gathered from unrelated publications.
Numbered parts are unrelated; each lists some results of a single study.

Series 1 — technique: universal PBM; form: double-stranded DNA, one strand shown; medium: in vitro; tested at: not given; direction: higher = stronger binding
Target: Sal-like protein 4, full length isoform B (SALL4, Homo sapiens, UniProt Q9UJQ4-2, residues 1-616)
Notes: 8-mer, flanks averaged, mean of replicates
Strand	E-score
AGCATGAT	0.0681
CGGGCAAA	-0.194
CTAGATGC	-0.0259
ATTCATAG	0.34
AACGAGTT	-0.0144
CGGCGTAC	-0.314
CAGGGATG	-0.0976
GACAAAAA	0.234

Series 2 — technique: protein-binding microarray; form: double-stranded DNA, one strand shown; medium: in vitro; tested at: 250 nM; notes: 60-bp whole probe; with: salmon DNA 0.4 mg/ml; relative to: random background probes; direction: higher = stronger binding; constant ends, left off below: GCCTAGCAC … GTCTTGATTCGCTTGACGCTGCTG
Target: Interferon regulatory factor 5, full length, phosphomimetic (IRF5, Homo sapiens, UniProt Q13568-2, residues 1-514, K96S/S451D/S453D/S456D/S462D)
Strand	log fluorescence
TCATGTTTCTGTGTCACACTGTGCTAG	3.32 z-score
TTAGATATCGGGTTTCGATTGGTGCTA	7.52 z-score
TTAGGTATCAACTATCGGTTAGTGCTA	6.78 z-score
TTAGGACTGGGGTAGCGGTTAGTGCTA	-0.443 z-score
TCATCTCTGTCCCTGTTACTGTGCTAG	0.492 z-score
GCATTTTTCTAATTTACTTTGTGCTAG	0.983 z-score
TTAGATTTCGAGTTTCGATTAGTGCTA	9.1 z-score
CTAATTTTGAGACTCATGGGGTGCTAG	0.129 z-score

Other studies, line by line
Substance	target or system	assay	system	setting	quantity	value
SF3B2 (Homo sapiens, UniProt Q13435)	TRIR (Homo sapiens, UniProt Q9BQ61)	cross-linking MS	cell fractions	with: DSSO	cross-linked residues	K486 to K106
ASSEPHCAL	HLA class I histocompatibility antigen, A alpha chain, allele A*80:01 (Homo sapiens, UniProt P04439)	peptide-MHC binding	peptide	concentration not given	binding	inactive
EIF3CL (Homo sapiens, UniProt B5ME19)	EIF3E (Homo sapiens, UniProt P60228)	cross-linking MS	–	hits only	interaction screen	cross-linked
GPAT3 (Homo sapiens, UniProt Q53EU6)	CHP1 (Homo sapiens, UniProt Q99653)	cross-linking MS	–	hits only	interaction screen	cross-linked

A few entries again (series 2):
Strand	log fluorescence
TTAGATATCGGGTTTCGATTGGTGCTA	7.52 z-score
TTAGGTATCAACTATCGGTTAGTGCTA	6.78 z-score
